Published values gathered from unrelated publications.
Compare with care: the assays were run in different laboratories. Values joined by “and” are separate records of one study, mostly repeats; a detail may differ. Numbers after ± are the reported error.
Chain of UniProt P11712 (whole entry, looked up): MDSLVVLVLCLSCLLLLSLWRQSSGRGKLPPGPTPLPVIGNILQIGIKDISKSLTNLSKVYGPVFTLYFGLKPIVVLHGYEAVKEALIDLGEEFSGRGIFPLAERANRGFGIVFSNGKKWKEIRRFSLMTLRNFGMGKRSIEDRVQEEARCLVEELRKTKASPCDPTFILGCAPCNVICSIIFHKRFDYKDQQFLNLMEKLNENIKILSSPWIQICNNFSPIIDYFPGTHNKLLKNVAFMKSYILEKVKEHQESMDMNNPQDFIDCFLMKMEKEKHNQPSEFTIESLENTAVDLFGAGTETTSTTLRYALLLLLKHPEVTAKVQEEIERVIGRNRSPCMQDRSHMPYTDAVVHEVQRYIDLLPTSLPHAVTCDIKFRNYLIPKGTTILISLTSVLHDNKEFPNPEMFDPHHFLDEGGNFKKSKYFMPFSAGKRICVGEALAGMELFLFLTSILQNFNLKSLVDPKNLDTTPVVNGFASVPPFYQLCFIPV
Chain of UniProt O75469 (whole entry, looked up): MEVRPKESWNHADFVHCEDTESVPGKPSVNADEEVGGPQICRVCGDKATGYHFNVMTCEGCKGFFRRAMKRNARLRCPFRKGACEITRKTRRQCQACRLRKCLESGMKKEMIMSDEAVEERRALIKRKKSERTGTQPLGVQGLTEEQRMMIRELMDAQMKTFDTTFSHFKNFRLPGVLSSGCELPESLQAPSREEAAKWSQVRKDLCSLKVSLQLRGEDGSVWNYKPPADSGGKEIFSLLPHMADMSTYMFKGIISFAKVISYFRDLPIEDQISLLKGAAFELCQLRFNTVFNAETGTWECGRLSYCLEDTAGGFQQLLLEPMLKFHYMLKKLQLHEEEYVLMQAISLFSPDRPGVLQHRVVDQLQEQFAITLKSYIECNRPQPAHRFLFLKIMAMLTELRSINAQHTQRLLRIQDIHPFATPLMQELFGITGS

| Compound | tested on | test | test system | conditions | scale | endpoint | result |
| --- | --- | --- | --- | --- | --- | --- | --- |
| CC(C)Cc1ccc(C(C)C(=O)N[C@@H](CCCCNC(=O)CCOCCOCCOCCOCCOCCOCCNC(=O)CN2CCN(CC(=O)[O-])CCN(CC(=O)[O-])CCN(CC(=O)[O-])CC2)C(=O)Nc2cccc3c(C(=O)NCC(=O)N4CC(F)(F)C[C@H]4C#N)ccnc23)cc1.[177Lu+3] (stereo partly drawn) | U-87 MG tumour model | – | host not given, blood | 4 h, tumour-bearing | – | tracer uptake | 8.8 %ID/g |
| O=C1NC2(CC2)COc2ncc(F)cc2[C@H]2COCCN2c2ccn3ncc1c3n2 | Salmonella typhimurium | Ames test | TA98 | 5000 µg/plate, 48 h, together with: without S9 | – | revertant colonies | 13 ± 3 revertants/plate |
| CC[C@H](C)[C@H](NC(=O)[C@H](Cc1ccccc1)NC(=O)[C@H](CCC(=O)O)NC(=O)[C@H](CCCCN)NC(=O)[C@H](C)NC(=O)[C@H](C)NC(=O)[C@H](CCC(N)=O)NC(=O)CNC(=O)[C@H](CCC(=O)O)NC(=O)[C@H](CC(C)C)NC(=O)[C@H](Cc1ccc(O)cc1)NC(=O)[C@H](CO)NC(=O)[C@H](CO)NC(=O)[C@@H](NC(=O)[C@H](CC(=O)O)NC(=O)[C@H](CO)NC(=O)[C@@H](NC(=O)[C@H](Cc1ccccc1)NC(=O)[C@@H](NC(=O)CNC(=O)[C@H](CCC(=O)O)NC(=O)[C@H](C)NC(=O)[C@@H](N)Cc1c[nH]cn1)[C@@H](C)O)[C@@H](C)O)C(C)C)C(=O)N[C@@H](C)C(=O)N[C@@H](Cc1c[nH]c2ccccc12)C(=O)N[C@@H](CC(C)C)C(=O)N[C@H](C(=O)N[C@@H](CCCCN)C(=O)NCC(=O)N[C@@H](CCCN=C(N)N)C(=O)NCC(=O)O)C(C)C | DPP-4 (recombinant) | substrate, LC-MS | – | 500 µM, 4 h | – | remaining peptide | 76% |
| COc1cccc(OC)c1-c1cc(C(=O)NC2(C(=O)O)C3CC4CC(C3)CC2C4)nn1-c1ccc(C(=O)N(C)CCOCCN(C)C(=O)[C@H](CCCCNC(=O)[C@H](CC(C)C)NC(=O)C2OC2C(=O)O)NC(=O)CN2CCN(CC(=O)[O-])CCN(CC(=O)[O-])CCN(CC(=O)[O-])CC2)cc1C(C)C.[177Lu+3] (mixture of isomers) | HT-29 tumour model | – | host not given, pancreas | 4 h, tumour-bearing | – | tracer uptake | 0.54 %ID/g |
| O=C1C2CC3CC1CC(C(=O)N1CCN(c4ccc([N+](=O)[O-])c5ncccc45)CC1)(C3)C2 | Escherichia coli | Ames test | WP2 uvrA pKM101 | 0.05 µg/well, with S9 activation | – | revertant colony count | 27 colonies/well |
| COC(=O)Nc1nc2cc(C(O)c3ccc(F)cc3)ccc2[nH]1 (stereo not drawn) | Salmonella typhimurium | Ames preincubation test | TA1537 | 437.5 µg/plate, without S9 | – | revertants | 19.7 revertants/plate |
| N#Cc1ccnc(N2C(=O)CC[C@H]2C(=O)N(c2cc(F)cc(F)c2)[C@H](C(=O)NC2CC(F)(F)C2)c2ccccc2Cl)c1 (stereo in doubt) | NR1I2 (Homo sapiens, UniProt O75469) | reporter gene, agonist | – | 1 µM | relative to: rifampicin | activation | 69% |
| N#C[C@@H]1CC(F)(F)CN1C(=O)CNC(=O)c1ccnc2c(NC(=O)[C@@H](N)CCCCNC(=O)CCOCCOCCOCCOCCOCCOCCNC(=O)CN3CCN(CC(=O)[O-])CCN(CC(=O)[O-])CCN(CC(=O)[O-])CC3)cccc12.[177Lu+3] | U-87 MG tumour model | – | host not given, stomach | 4 h, tumour-bearing | – | tracer uptake | 0.14 %ID/g |
| CC[C@H](C)[C@H](NC(=O)C[C@H](NC(=O)CN1CCN2CCN(CC1)CC(=O)[O][Al]([18F])[O]C(=O)C2)C(=O)O)C(=O)N[C@H]1CCc2cccc3c2N(C1=O)[C@H](C(=O)NCc1cn[nH]n1)C3 | MC-38 tumour model | – | host not given, spleen | 30 min, tumour-bearing | – | tracer uptake | 0.4 %ID/g |
| N#C[C@@H]1CC(F)(F)CN1C(=O)CNC(=O)c1ccnc2c(NC(=O)[C@H](CCCCNC(=O)CCOCCOCCOCCOCCOCCOCCNC(=O)CN3CCN(CC(=O)[O-])CCN(CC(=O)[O-])CCN(CC(=O)[O-])CC3)NC(=O)CCCc3ccc(I)cc3)cccc12.[177Lu+3] | U-87 MG tumour model | – | host not given, muscle | 96 h, tumour-bearing | – | tracer uptake | 0.05 %ID/g |
| CCN(CC)CC#CCNc1ccnc2cc(Cl)ccc12 | Salmonella typhimurium | mini-Ames test | TA1535 | 125.0 µg/well, without S9 | – | revertants per well | 1 |
| COc1cccc(OC)c1-c1cc(C(=O)NC2(C(=O)O)C3CC4CC(C3)CC2C4)nn1-c1ccc(C(=O)N(C)CCCN(C)C(=O)[C@H](CCCCNC(=O)[C@H](CC(C)C)NC(=O)C2OC2C(=O)O)NC(=O)CN2CCN(CC(=O)[O-])CCN(CC(=O)[O-])CCN(CC(=O)[O-])CC2)cc1C(C)C.[177Lu+3] (mixture of isomers) | HT-29 tumour model | – | host not given, blood | 24 h, tumour-bearing | – | tracer uptake | 0.13 %ID/g |
| O=C(Oc1cc(OC(=O)c2cc(O)c(O)c(O)c2)c2ccccc2c1)c1cc(O)c(O)c(O)c1 | herpes simplex virus 2 | viral DNA RT-qPCR | 333 | – | CC50 over IC50 | therapeutic index | > 20 |
| CNC(=O)C1CCCN(C(=O)C2CC3CCC2N3C(=O)[C@@H]2C[C@@H](O)CN2C(=O)NCc2cccc(Cl)c2F)C1 (mixture of isomers) | Cytochrome P450 2C9 (CYP2C9, Homo sapiens, UniProt P11712) | preincubation with NADPH | human | 50 µM | relative to: negative control | remaining activity | 99.7% and 118% and 97.4% |
| C=C(NC(=O)c1csc(-c2nc3c(cc2O)-c2nc(cs2)C(=O)NC(C(C)O)C(=O)NC(=C(C)OC)c2nc(cs2)C(=O)NC2c4nc(cs4)C(=O)NC(COC(=O)c4c5c6c(cccc6n4O)COC(=O)C(OC4CC(C)(O)C(N(C)C)C(C)O4)C2OC5)c2nc-3cs2)n1)C(N)=O (stereo not drawn) | – | – | Sprague-Dawley rats, both sexes, plasma | intravenous infusion, 2 mg/kg | – | AUC(0-inf) | 869 ng·h/mL |
| N#C[C@@H]1CC(F)(F)CN1C(=O)CNC(=O)c1ccnc2c(NC(=O)CCOCCOCCOCCOCCOCCOCCNC(=O)[C@H](CCCCNC(=O)CN3CCN(CC(=O)[O-])CCN(CC(=O)[O-])CCN(CC(=O)[O-])CC3)NC(=O)CCCc3ccc(I)cc3)cccc12.[177Lu+3] | U-87 MG tumour model | – | host not given, bone | 24 h, tumour-bearing | – | tracer uptake | 1.38 %ID/g |
| CC(C)OCCOCc1ccc(OCC(O)CN(N=O)C(C)C)cc1 (stereo not drawn) | Salmonella typhimurium | Ames test | TA100 | 500 µg/plate, without metabolic activation | relative to: solvent control | revertant fold increase | 1 fold |
| CN1CCCNC(=O)c2cccc(c2)C(=O)NCCCN(C)CCCNc2cccc3c2C(=O)c2cccc(c2C3=O)NCCC1 | Ca9-22 | CCK-8 | – | 0.15 µM, 48 h | relative to: untreated | viability | 58.7% |

Some of these lines once more:
| Compound | tested on | test | test system | conditions | scale | endpoint | result |
| --- | --- | --- | --- | --- | --- | --- | --- |
| N#C[C@@H]1CC(F)(F)CN1C(=O)CNC(=O)c1ccnc2c(NC(=O)[C@H](CCCCNC(=O)CCOCCOCCOCCOCCOCCOCCNC(=O)CN3CCN(CC(=O)[O-])CCN(CC(=O)[O-])CCN(CC(=O)[O-])CC3)NC(=O)CCCc3ccc(I)cc3)cccc12.[177Lu+3] | U-87 MG tumour model | – | host not given, muscle | 96 h, tumour-bearing | – | tracer uptake | 0.05 %ID/g |
